Results from different studies.
Compare with care: the assays were run in different laboratories. Several values in a cell are separate wells, animals, samples, runs or records. ± marks the error that the study gave. In brackets after ≈: the same amount, converted by molar mass.

CC(C)(C)C(=O)Nc1ccc2[nH]c(CN3CCC(N(CCCN4CCOCC4)CC4OC(n5cnc6c(N)ncnc65)C(O)C4O)CC3)nc2c1 (centres unmarked) has a concentration of 21 ng/mL (male Sprague-Dawley rat, plasma; intraperitoneal, 20 mg/kg, 10 h).
With CN1CCC[C@]1(C)/C=C/S(=O)(=O)NC(=O)Nc1c2c(cc3c1CC(O)C3)CCC2 (some centres unmarked) the AUC(0-24) was 211 µg·h/mL (human, plasma; oral, 100 mg twice daily of parent drug, day 14, metabolite of dosed drug).
With CN(O)C(=O)CCC(=O)NCCCN(CCCCN(CCCNC(=O)CCC(=O)N(C)O)C(=O)CCC(=O)N(C)O)C(=O)CCC(=O)N(C)O.[89Zr] the tracer uptake was 0.21 %ID/g (mouse, fat; 1 h).
CN1CCC[C@]1(C)/C=C/S(=O)(=O)NC(=O)Nc1c2c(cc3c1C(O)CC3)CCC2 (some centres unmarked) gave an AUC(0-24) of 38.6 µg·h/mL (human, plasma; oral, 12.5 mg twice daily of parent drug, day 1, metabolite of dosed drug).
O=C(NS(=O)(=O)c1cccs1)c1cc2ccccc2n1Cc1ccc(Br)c2ccccc12 gave a body weight of 38.5 g and 37.4 g and 34 g and 37.5 g and 40.2 g and 36.6 g (KM mouse, chronic hyperuricaemia model; dose not given, day 24).
With COc1ccc(Nc2nc(Nc3ccc(OCCOCC[18F])cc3)ncc2Br)cc1 the uptake ratio was 2.12 (ICR mice, S180 tumour; intravenous, 370 kBq, 5 min; baseline: tumour over bone).
With Cc1cc(NC(=O)C(=O)N2C[C@@H](C)CC[C@@H]2c2ccc3scnc3c2)cnc1N the Kp,uu was roughly 0.6 (cynomolgus monkey, CSF and plasma; oral, 10 mg/kg; baseline: CSF over plasma).
COC1CN([C@H]2CC[C@H]([C@@]3(C)Oc4c(Cl)cc(C(=O)NCc5c(SC)cc(C)[nH]c5=O)c(C)c4O3)CC2)C1 — result for “log2 fold change”: 1.01 (RNA-seq, item: PRSS23; human, whole blood; dose not given, 24 h; baseline: pretreatment baseline).
For C=CC(=O)Nc1cc(Nc2nccc(-c3cn(C)c4ccccc34)n2)c(OC)cc1N(C)CCNC, the recovery was 94.5% (storage stability; human dried blood spots; 5 h, on ice, LLOQ level).
For Cc1cc(-c2ccc(C(=O)[C@@H]3CCCC[C@H]3C(=O)Nc3cnn4c3C(=O)NCC4)cc2)[nH]n1, “cumulative recovery of radioactivity” read 5.79% (human, faeces; oral, 200 mg, 0-24 h; baseline: dose).
C/C(N)=N/C(=N\S(=O)(=O)c1ccc(C(F)(F)F)cc1)N1C[C@H](c2ccccc2)C(c2ccc(Cl)cc2)=N1 gave a half-life of 10.5 h (female cynomolgus monkey, plasma; oral, 18 mg/kg).
With O=C(Nc1cnccc1-c1ccc([18F])nc1)c1ccnc(NC(=O)C2CC2)c1 the mean SUV was 0.091 (ex vivo gamma counting; FVB/NJ mice, both sexes, eyes; intravenous, 120 min, added: tariquidar 15 mg/kg iv).
With C=CC(=O)Nc1cccc(Cn2ncc3cnc(Nc4cnn(CCOC)c4)nc32)c1 the binding was 57% (human MET; KINOMEscan; 100 nM; baseline: control).
Under “protonation constant (log)”, O=C(O)CCCCC1(N(CC(=O)O)CC(=O)O)CN(CC(=O)O)CCN(CC(=O)O)C1 is recorded as 6.85 (pH-potentiometry, item: logK2H; 0.15 M NaClO4; 25 °C).
CC[C@H](C)[C@H](NC(=O)[C@H](CCC(N)=O)NC(=O)[C@@H](NC(=O)[C@@H]1CCCN1[C@@H]1CN(C(=O)[C@H](CCCCN)NC(=O)[C@H](CC(N)=O)NC(=O)[C@@H](NC(=O)[C@@H](NC(=O)[C@H](CCC(N)=O)NC(=O)[C@@H](N)C(C)C)[C@@H](C)CC)[C@@H](C)CC)CC[C@H]1NS(=O)(=O)c1ccc(C)cc1)C(C)C)C(=O)N[C@H](C(=O)N[C@@H](Cc1ccc(O)cc1)C(=O)N[C@@H](CCCCN)C(N)=O)C(C)C gave a beta-sheet content of 32.4% (CD spectroscopy; 20 mM phosphate buffer; 125 µM, 20 °C).
For Cc1ncsc1-c1ccc(C(C)NC(=O)C2CC(O)CN2C(=O)C(NC(=O)CCCCCCCCCCN2CCCC(Nc3ncc(Cl)c(Nc4ccccc4S(=O)(=O)C(C)C)n3)C2)C(C)(C)C)cc1 (centres unmarked), “log2 fold change” read -1.01 (22Rv1; RNA-seq, item: RGP1 mRNA; concentration not given; baseline: DMSO).
With C=C[C@]1(C)C[C@@H](OC(=O)CSc2ccc(NC(=O)c3ccco3)cc2)[C@]2(C)[C@H](C)CC[C@]3(CCC(=O)[C@H]32)[C@@H](C)[C@@H]1O the plasma concentration was 113 ng/mL and 145 ng/mL and 91 ng/mL and 138 ng/mL and 311 ng/mL and 339 ng/mL and 135 ng/mL and 106 ng/mL (Mycoplasma gallisepticum-infected chickens, plasma; intramuscular, 40 mg/kg, 6 h).
The remaining compound of Cc1ccc(OCC(=O)N(Cc2cccs2)c2ccn[nH]2)cc1 is reported as 0.4 (rat plasma; 750 ng/mL, 4 h, 37 °C, unit not given; baseline: time zero).
CN1CCC[C@]1(C)/C=C/S(=O)(=O)NC(=O)Nc1c2c(cc3c1CCC3O)CCC2 (some centres unmarked) gave an AUC(0-24) of 1210 µg·h/mL (human, plasma; oral, 100 mg twice daily of parent drug, day 1, metabolite of dosed drug).
CCCC[C@H]1C(=O)N(C)[C@@H](CCCC)C(=O)N[C@@H](CCCCNC(=S)Nc2ccc(CN3CCN(CC(=O)O)CCN(CC(=O)O)CC3)cc2)C(=O)N[C@H](C(=O)NCC(N)=O)CSCC(=O)N[C@@H](Cc2ccc(O)cc2)C(=O)N(C)[C@@H](C)C(=O)N[C@@H](CC(N)=O)C(=O)N2CCC[C@H]2C(=O)N[C@@H](Cc2cnc[nH]2)C(=O)N[C@@H](CCC(=O)O)C(=O)N2C[C@H](O)C[C@H]2C(=O)N[C@@H](Cc2c[nH]c3ccccc23)C(=O)N[C@@H](CO)C(=O)N[C@@H](Cc2cn(CC(=O)O)c3ccccc23)C(=O)N1C [fluorine-18 labelled] has an SUV of 1.19 ± 0.49 SUV (PET, item: PD-L1; huCD34 mouse A-375 xenograft, tumour periphery beyond 3 mm; anti-PD-1 monotherapy).
For O=C(Nc1cnccc1-c1ccc([18F])cc1)c1ccnc(NC(=O)C2CC2)c1, the mean SUV was 0.23 (ex vivo biodistribution, gamma counting; GSK-3β overexpressing transgenic mouse, late stage, adipose tissue; intravenous, 120 min post-injection, added: tariquidar 15 mg/kg iv, at least 2 h before tracer).
With Cc1nn(-c2nc3c(F)cc(F)cc3s2)c(O)c1C(c1ccc(C(F)(F)F)cc1)c1c(C)nn(-c2nc3c(F)cc(F)cc3s2)c1O the AUMC(0-t) was 203000 h²·ng/mL and 204000 h²·ng/mL and 170000 h²·ng/mL (ICR mouse, plasma; intraperitoneal, 10 mg/kg).
O=S1(=O)CC2CCCCC2CS1 (centres unmarked) has a solubility of 5.52 mM (≈ 1140 µg/mL) (phase solubility, NMR; water; 25 °C, added: hydroxypropyl-β-cyclodextrin 38.8 mM).
For CC(C)(C)NCC(SS(=O)(=O)O)c1ccccc1 (centres unmarked), the body weight was 29.9 g and 28.9 g and 27.4 g (Schistosoma mansoni-infected Swiss Webster mice; oral, daily x4, 100 mg/kg, from day 21, perfusion day 36).
COc1ccc2c(c1)CN(C(=O)CCN1CCC(Cc3ccccc3)CC1)CC[S+]2[O-] (centres unmarked) gave a fu of 0.295 (dog plasma; 7500 ng/mL).
For C=C(NC(=O)c1csc(-c2nc3c(cc2O)-c2nc(cs2)C(=O)NC(C(C)O)C(=O)NC(=C(C)OC)c2nc(cs2)C(=O)NC2c4nc(cs4)C(=O)NC(COC(=O)c4c5c6c(cccc6n4O)COC(=O)C(OC4CC(C)(O)C(N(C)C)C(C)O4)C2OC5)c2nc-3cs2)n1)C(N)=O (centres unmarked), the AUC(0-inf) was 0.175 µg·h/mL (ICR mice, Streptococcus pneumoniae ATCC 49169 infected, immunocompromised, blood; intravenous, 2 mg/kg/day twice daily).
Cc1nc(N)nc2c1C(=O)N[C@@H](c1ccc(F)cc1-c1cccc(O[11CH3])n1)C2 has a tracer uptake of 0.9 ± 0.1 %ID (radioligand, ex vivo biodistribution; mouse, MDA-MB-231 xenograft, tumour; 60 min p.i.).
With CCCCN1C(=O)c2cccc3c(NCCCCCCN4CCOCC4)ccc(c23)C1=O the fluorescence lifetime was 9.8 ns (chloroform).
The hydrolytic half-life of COc1ccc(OC(C)=O)cc1-c1c[nH]c2ncc(-c3cncc(C(=O)N(C)C)c3)cc12 is reported as greater than 24 h (HPLC; 50 µM, 37 °C, no lysine, followed to 24 h).
For O=C(c1cccc(N2Cc3cn(Cc4ccc(F)cc4)nc3C2)c1)N1CCCCC1, the half-life was 0.3 h (metabolic stability; human, liver microsomes).
C#CCCOc1nc(OCC)nc(SC[C@@H](NC(=O)[C@H](N)CCC(=O)O)C(=O)N[C@H](Cc2ccccc2)C(N)=O)n1 gave a hydrolysis of roughly 15% (human plasma; concentration not given, 48 h).
CCC1=[N+]2N=C(/C=C/c3ccccc3)C(=O)O[B-]2(c2ccccc2)Oc2cc(N(CC)CC)ccc21 (centres unmarked): “hydrolysis activation energy” 24.4 kcal/mol (UV/vis decay; aqueous buffer).

Repeated from above:
For C=CC(=O)Nc1cc(Nc2nccc(-c3cn(C)c4ccccc34)n2)c(OC)cc1N(C)CCNC, the recovery was 94.5% (storage stability; human dried blood spots; 5 h, on ice, LLOQ level).
For Cc1cc(-c2ccc(C(=O)[C@@H]3CCCC[C@H]3C(=O)Nc3cnn4c3C(=O)NCC4)cc2)[nH]n1, “cumulative recovery of radioactivity” read 5.79% (human, faeces; oral, 200 mg, 0-24 h; baseline: dose).
